Results gathered from unrelated publications.
Each line is one published result; not all experiments were run side by side. Values joined by “and” are separate records of one study, mostly repeats; a detail may differ. ± marks the error that the study gave.
Enpp1: Ectonucleotide pyrophosphatase/phosphodiesterase family member 1 (Enpp1, Mus musculus, UniProt P06802)
cyp121: Mycocyclosin synthase (cyp121, Mycobacterium tuberculosis, UniProt P9WPP7)
guaB: Inosine-5'-monophosphate dehydrogenase (guaB, Staphylococcus aureus, UniProt Q2YVL6)
CNR1: Cannabinoid receptor 1 (CNR1, Homo sapiens, UniProt P21554)
OXA-58: Beta-lactamase OXA-58 (OXA-58, Acinetobacter baumannii, UniProt Q2TR58)
OXA-48: Beta-lactamase OXA-48 (OXA-48, Klebsiella pneumoniae, UniProt Q6XEC0)
Bcl-2-related protein A1 C113S/P104K: Bcl-2-related protein A1 (Mus musculus, UniProt Q07440, C113S/P104K)

Protein sequences, listed by entry. Tags and fused reporters are not part of them. Residues count along the entry.
UniProt Q2YVL6, whole entry: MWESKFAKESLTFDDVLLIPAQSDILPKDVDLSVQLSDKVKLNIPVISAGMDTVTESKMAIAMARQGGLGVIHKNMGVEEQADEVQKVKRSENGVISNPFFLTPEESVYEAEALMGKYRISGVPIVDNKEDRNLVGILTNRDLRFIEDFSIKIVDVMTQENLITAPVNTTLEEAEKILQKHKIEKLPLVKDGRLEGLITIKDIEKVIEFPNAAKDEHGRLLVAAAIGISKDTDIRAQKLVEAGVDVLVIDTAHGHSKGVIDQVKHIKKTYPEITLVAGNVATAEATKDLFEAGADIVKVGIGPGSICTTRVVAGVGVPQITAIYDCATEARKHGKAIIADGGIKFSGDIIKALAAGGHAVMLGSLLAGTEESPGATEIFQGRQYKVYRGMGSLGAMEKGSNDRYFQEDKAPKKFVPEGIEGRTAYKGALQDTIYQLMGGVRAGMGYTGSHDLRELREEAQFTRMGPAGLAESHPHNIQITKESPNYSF
UniProt Q2TR58, 19-280 limits assumed: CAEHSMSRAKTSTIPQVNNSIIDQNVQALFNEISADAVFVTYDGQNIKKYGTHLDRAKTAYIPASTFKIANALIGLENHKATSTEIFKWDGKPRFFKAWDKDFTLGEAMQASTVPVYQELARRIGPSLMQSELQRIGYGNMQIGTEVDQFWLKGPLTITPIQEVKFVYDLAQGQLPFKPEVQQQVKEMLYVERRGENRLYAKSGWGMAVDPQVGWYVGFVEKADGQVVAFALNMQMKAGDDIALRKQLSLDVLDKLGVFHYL
UniProt Q6XEC0, 23-265 limits assumed: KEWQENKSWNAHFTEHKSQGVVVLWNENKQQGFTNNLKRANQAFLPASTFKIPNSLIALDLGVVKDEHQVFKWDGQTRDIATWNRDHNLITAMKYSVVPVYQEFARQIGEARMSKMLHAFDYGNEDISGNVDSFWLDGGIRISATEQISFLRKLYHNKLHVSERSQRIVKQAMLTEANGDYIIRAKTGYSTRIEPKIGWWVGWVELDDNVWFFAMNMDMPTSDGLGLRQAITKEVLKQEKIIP
UniProt Q07440, whole entry P104K/C113S, looked up: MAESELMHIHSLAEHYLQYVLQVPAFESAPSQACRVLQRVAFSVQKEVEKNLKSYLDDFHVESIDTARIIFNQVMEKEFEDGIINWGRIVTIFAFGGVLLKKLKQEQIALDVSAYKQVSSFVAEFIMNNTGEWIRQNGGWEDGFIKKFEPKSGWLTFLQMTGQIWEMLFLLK
UniProt P42260, 32-908 limits assumed: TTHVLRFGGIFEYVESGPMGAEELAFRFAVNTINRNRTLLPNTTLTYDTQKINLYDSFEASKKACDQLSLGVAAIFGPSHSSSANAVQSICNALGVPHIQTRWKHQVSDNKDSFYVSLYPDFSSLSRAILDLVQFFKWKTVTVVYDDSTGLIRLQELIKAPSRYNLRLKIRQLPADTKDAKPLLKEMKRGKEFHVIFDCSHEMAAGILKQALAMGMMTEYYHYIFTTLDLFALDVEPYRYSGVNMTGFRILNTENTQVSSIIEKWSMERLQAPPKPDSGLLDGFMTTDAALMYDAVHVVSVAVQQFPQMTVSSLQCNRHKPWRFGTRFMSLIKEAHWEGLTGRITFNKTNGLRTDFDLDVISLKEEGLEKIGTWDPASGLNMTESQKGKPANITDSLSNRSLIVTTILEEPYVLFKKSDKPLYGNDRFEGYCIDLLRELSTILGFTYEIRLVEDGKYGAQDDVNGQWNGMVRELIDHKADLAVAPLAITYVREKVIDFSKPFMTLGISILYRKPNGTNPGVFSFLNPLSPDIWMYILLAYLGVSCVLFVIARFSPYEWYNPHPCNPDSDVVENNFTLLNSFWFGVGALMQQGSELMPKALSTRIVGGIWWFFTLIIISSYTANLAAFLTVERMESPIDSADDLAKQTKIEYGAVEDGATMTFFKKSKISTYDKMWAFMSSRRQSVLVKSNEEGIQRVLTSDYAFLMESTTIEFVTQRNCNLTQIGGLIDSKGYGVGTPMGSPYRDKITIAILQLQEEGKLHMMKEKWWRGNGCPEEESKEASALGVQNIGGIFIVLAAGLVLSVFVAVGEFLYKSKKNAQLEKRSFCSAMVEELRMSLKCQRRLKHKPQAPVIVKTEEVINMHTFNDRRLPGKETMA
UniProt Q8MXD1, 178-592 limits assumed: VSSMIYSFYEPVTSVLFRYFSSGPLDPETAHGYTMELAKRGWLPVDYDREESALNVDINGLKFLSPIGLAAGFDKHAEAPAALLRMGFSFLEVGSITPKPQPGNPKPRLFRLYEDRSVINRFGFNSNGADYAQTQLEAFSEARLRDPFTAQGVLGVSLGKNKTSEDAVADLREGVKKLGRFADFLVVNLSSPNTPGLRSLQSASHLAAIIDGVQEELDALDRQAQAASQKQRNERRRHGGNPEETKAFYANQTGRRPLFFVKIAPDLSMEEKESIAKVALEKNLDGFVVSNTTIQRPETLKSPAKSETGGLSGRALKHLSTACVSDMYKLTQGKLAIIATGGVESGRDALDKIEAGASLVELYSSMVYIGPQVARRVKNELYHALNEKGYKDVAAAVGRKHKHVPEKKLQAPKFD
UniProt P0A6K3, whole entry: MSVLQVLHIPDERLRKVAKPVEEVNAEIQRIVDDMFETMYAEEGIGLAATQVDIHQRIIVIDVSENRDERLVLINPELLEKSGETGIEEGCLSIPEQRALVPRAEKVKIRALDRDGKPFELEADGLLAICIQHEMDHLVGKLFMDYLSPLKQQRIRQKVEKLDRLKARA
UniProt P39898, 124-452 limits assumed: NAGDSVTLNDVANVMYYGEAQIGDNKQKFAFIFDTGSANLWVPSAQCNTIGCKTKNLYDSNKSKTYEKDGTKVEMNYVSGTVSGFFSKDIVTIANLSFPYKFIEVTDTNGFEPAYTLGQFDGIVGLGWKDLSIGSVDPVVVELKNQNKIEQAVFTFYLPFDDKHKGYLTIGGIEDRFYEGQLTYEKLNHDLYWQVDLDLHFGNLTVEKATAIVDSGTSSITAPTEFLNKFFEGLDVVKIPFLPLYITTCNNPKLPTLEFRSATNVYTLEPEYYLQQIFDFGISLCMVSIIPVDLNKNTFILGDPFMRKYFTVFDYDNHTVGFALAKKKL
UniProt Q8IC05, 1-745: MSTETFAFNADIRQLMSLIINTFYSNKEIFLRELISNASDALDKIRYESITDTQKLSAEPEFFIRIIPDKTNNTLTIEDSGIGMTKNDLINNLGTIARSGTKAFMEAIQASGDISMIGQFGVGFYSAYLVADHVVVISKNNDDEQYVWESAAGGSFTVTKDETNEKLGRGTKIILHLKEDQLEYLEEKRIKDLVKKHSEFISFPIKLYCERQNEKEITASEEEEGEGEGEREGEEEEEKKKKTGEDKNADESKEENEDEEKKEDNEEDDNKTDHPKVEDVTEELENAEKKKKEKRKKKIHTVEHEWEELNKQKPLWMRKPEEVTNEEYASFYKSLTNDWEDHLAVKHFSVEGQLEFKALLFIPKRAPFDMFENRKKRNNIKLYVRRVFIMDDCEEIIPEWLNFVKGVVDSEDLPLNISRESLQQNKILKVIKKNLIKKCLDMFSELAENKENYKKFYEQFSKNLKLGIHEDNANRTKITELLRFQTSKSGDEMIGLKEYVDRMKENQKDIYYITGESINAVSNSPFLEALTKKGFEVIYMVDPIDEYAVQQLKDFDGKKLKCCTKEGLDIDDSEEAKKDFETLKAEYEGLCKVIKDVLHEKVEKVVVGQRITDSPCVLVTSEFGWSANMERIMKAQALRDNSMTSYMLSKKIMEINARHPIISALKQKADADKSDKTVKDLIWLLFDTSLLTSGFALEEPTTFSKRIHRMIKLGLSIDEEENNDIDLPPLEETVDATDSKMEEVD
UniProt P49789, whole entry: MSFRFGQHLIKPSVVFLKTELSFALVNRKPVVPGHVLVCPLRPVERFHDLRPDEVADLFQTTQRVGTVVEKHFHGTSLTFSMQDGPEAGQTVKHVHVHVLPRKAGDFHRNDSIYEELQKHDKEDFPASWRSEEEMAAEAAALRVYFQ
UniProt Q48485, 24-384 limits assumed: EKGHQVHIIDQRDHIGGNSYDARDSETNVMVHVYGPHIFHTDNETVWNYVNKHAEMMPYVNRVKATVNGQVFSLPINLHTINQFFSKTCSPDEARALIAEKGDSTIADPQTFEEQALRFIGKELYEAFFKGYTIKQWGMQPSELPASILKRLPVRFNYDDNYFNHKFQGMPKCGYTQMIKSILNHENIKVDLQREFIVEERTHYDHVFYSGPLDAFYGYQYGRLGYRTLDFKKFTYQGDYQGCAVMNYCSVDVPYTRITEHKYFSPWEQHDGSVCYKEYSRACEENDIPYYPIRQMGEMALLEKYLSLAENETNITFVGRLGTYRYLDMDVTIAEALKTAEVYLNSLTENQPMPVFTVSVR
UniProt P31652, whole entry: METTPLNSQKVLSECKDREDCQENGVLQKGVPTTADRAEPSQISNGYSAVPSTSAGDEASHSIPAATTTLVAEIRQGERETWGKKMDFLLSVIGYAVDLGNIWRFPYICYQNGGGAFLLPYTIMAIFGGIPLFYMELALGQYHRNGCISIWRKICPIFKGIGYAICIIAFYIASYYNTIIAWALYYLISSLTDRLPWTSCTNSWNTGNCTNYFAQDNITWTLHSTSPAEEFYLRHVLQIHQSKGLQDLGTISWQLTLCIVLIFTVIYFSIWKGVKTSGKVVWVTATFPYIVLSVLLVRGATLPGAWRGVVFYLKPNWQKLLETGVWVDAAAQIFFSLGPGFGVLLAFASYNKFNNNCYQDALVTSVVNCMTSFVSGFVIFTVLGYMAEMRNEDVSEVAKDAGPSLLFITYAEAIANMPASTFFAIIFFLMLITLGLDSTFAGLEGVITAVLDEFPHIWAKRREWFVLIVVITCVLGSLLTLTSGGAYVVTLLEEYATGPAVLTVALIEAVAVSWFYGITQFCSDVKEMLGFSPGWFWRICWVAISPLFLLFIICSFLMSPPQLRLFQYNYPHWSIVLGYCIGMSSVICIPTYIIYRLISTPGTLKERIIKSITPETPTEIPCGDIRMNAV
UniProt P0AD64, 22-286 N270D limits assumed: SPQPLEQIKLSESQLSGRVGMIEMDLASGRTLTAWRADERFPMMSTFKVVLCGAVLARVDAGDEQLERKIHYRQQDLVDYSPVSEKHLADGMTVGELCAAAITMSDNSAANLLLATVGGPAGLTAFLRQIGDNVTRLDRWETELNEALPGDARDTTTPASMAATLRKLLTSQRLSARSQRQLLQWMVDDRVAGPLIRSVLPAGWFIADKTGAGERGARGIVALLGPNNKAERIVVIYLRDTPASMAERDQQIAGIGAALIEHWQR
UniProt P13955, whole entry: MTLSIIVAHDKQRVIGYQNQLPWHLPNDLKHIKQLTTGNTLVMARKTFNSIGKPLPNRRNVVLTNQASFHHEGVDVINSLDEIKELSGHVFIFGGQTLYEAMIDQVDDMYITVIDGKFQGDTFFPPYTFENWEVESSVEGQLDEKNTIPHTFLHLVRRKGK
UniProt P00811, 20-377 limits assumed: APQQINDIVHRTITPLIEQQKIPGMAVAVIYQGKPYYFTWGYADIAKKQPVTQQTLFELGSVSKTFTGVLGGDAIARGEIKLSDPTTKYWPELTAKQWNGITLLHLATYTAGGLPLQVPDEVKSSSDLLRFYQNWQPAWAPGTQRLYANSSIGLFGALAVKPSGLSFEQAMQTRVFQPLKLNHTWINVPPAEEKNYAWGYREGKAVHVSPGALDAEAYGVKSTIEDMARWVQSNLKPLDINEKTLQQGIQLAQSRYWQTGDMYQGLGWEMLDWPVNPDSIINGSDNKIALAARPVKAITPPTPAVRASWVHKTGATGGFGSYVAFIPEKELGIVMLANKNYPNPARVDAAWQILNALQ
UniProt P22303, 32-614 limits assumed: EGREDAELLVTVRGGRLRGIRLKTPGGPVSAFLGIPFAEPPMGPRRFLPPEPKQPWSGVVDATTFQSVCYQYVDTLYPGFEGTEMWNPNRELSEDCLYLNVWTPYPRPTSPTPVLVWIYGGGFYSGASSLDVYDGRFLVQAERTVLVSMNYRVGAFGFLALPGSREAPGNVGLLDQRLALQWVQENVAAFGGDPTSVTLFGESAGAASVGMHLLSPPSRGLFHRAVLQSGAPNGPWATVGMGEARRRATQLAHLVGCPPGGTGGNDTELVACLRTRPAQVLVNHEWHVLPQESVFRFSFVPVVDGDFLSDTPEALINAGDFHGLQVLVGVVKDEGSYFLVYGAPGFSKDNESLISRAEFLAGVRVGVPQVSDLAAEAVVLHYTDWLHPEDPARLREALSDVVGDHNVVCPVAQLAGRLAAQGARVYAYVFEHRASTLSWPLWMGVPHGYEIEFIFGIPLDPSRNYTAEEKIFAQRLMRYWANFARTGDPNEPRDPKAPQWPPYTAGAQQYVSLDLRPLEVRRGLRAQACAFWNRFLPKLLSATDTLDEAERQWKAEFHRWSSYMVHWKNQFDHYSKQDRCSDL
UniProt P34972, whole entry: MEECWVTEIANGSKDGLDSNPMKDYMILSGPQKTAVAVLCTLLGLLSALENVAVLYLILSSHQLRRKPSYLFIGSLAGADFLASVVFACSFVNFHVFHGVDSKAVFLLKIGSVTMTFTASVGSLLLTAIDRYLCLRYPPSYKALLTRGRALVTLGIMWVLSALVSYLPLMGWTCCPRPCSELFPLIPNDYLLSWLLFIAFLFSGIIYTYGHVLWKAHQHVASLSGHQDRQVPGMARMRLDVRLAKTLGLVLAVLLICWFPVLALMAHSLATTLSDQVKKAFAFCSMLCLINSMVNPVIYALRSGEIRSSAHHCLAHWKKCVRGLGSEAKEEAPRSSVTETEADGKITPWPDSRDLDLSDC

For `O=C(O)C(Cc1nn[nH]n1)[C@@H]1CCN[C@H]1C(=O)O` (relative stereo), the Ki was 61000 nM (Glutamate receptor ionotropic, kainate 2 (Grik2, Rattus norvegicus, UniProt P42260); binding; Sf9 cells; cloned homomeric receptor, together with: [3H]kainate).
The Ki of `COc1cccc2c(N3CCC(CCP(=O)(O)O)CC3)c(C#N)cnc12` is reported as < 2 nM (Enpp1; enzyme activity, inhibitor, coupled luciferase AMP detection; pH 7.4, together with: cGAMP 5 µM).
`O=C(Cc1cccs1)NCB(O)O` has a Ki of 780 ± 20 nM (ADC-7 beta-lactamase (Acinetobacter baumannii, UniProt Q6DRA1); inhibitor; pH 7.4, room temperature, together with: nitrocefin substrate).
`O=c1c2ccc(Oc3ccc(OC(F)(F)F)cc3)cc2[nH]c2cc(F)cc(Cl)c12` gave a Ki of 59 nM (Dihydroorotate dehydrogenase (Toxoplasma gondii, UniProt Q8MXD1); enzyme activity, competitive inhibitor, DCIP reduction).
With `CC(C)(C)[Si](OCCC(c1ccc(-c2ccc(F)cc2)cc1)n1ccnc1)(c1ccccc1)c1ccccc1` (centres unmarked) the Kd was 3.1 ± 0.73 µM (cyp121; binding).
For `CC(C)(NC(=O)Nc1ccc(Cl)c(-c2nc(C(F)(F)F)cs2)c1)c1cccc(C(N)=NO)c1`, the Ki was 10 ± 2 nM (guaB; inhibitor; together with: 1000 µM IMP and 1000 µM NAD+).
`Nc1nnc(SSc2nnc(N)s2)s1` has a Ki of 3000 nM (Peptide deformylase (def, Escherichia coli, UniProt P0A6K3); enzyme activity, slow-binding inhibitor; average direct and calculated).
The Ki of `CSC[C@H](NC(=O)Cc1ccc(N)cc1)C(=O)N[C@@H](Cc1ccccc1)[C@H](O)C(=O)N1CSC(C)(C)[C@H]1C(=O)N[C@H]1c2ccccc2C[C@H]1O` is reported as 0.47 nM (Plasmepsin I (PMI, Plasmodium falciparum, UniProt P39898); inhibitor, fluorogenic substrate; pH 5.0, mature enzyme).
With `CC(C)(NC(=O)Nc1ccc(Cl)cc1)c1cccc(C(=N)NO)c1` the Ki was 4200 ± 100 nM (IMPDH 2, Staphylococcus aureus, G445S; inhibitor; together with: 500 µM NAD+, 1.0 mM IMP).
For `COCCCNc1cc(C(=O)NC2CC3CCC(C2)N3c2ccc(C(=O)NCc3ccccc3)cn2)ccc1C(N)=O` (centres unmarked), the Ki was 46 ± 6.8 nM (Heat shock protein 90 (Plasmodium falciparum, UniProt Q8IC05); fluorescence polarization; full-length protein, together with: FITC-geldanamycin tracer).
For `Nc1ncnc2c1ncn2[C@@H]1O[C@H](COP(=S)(S)OCC(O)COP(=S)(S)OC[C@H]2O[C@@H](n3cnc4c(N)ncnc43)[C@H](O)[C@@H]2O)[C@@H](O)[C@H]1O` (some centres unmarked), the Ki was 8600 nM (Bis(5'-adenosyl)-triphosphatase (FHIT, Homo sapiens, UniProt P49789); competitive inhibitor, fluorescent substrate hydrolysis; together with: Appp-BODIPY substrate).
With `Cc1c(C(=O)NN2CCCCC2)nn(-c2ccc(Cl)cc2Cl)c1-c1ccc(CCCCCBr)cc1` the Ki was 1.5 nM (CNR1; radioligand displacement; together with: [3H]CP55,940).
`O=S(=O)(O)c1ccc2cc(S(=O)(=O)O)ccc2c1` gave a Ki of > 100000 nM and 120000 nM (OXA-58; enzyme activity, inhibitor; enzyme 0.1 nM, together with: nitrocefin 30 µM).
`CC(C)(C)c1ccc(CNc2nc3[nH]c(CN4CCOCC4)cc(=O)n3n2)cc1` gave a Ki of 114 nM (CAB1 (Saccharomyces cerevisiae, UniProt Q04430); enzyme activity, inhibitor, ADP-Glo, Lineweaver-Burk; together with: ATP 1000 µM).
The Ki of `C=C(C)c1cccc(C(C)(C)NC(=O)Nc2ccc(Cl)c(N)c2)c1` is reported as 12.8 ± 0.7 nM (guaB; inhibitor; together with: 1000 µM IMP and 1000 µM NAD+).
The Ki of `O=C(O)CC1Sc2nnc(-c3cccs3)n2N=C1c1ccc(Cl)cc1` (centres unmarked) is reported as 8000 ± 3000 nM (UDP-galactopyranose mutase (Klebsiella pneumoniae, UniProt Q48485); enzyme activity, inhibitor, HPLC).
With `Cc1cc(OCCCc2c(C(=O)Nc3cccc(C(=O)O)c3)[nH]c3c(-c4c(C)nn(C)c4C)c(Cl)ccc23)cc(C)c1Cl` the Ki was 4600 nM (Bcl-2-like protein 1 (BCL2L1, Homo sapiens, UniProt Q07817); fluorescence polarization competition; together with: 10 nM FITC-Bak peptide).
`O=C(O)c1ccc(-c2cccc(C(=O)O)c2)cc1` gave a Ki of 0.4 µg/mL (OXA-48; enzyme activity, inhibitor).
With `O[C@H](c1ccc(F)cc1)C(F)(F)CCN1CCC(O)(c2ccc(Cl)cc2)CC1` (racemic) the Ki was 36.9 ± 2.9 nM (D(4) dopamine receptor (DRD4, Homo sapiens, UniProt P21917)).
`C[C@@H]1CN(C)CCN1c1nc(-c2ccc(F)cc2)cs1` gave a Ki of 170 ± 90 nM (Sodium-dependent serotonin transporter (Slc6a4, Rattus norvegicus, UniProt P31652); [3H]5-HT uptake, inhibitor; 30 min preincubation).
`O=C(Cc1cccs1)NCB(O)O` gave a Ki of 36000 ± 4000 nM (Beta-lactamase SHV-1 (bla, Klebsiella pneumoniae, UniProt P0AD64, N270D); enzyme activity, inhibitor; together with: nitrocefin competitor).
For `CCCCCCCCCCCCNC(=O)N[C@H](C(=O)N[C@H]1/C=C/CCNC(=O)/C=C/[C@H](C)NC1=O)C(C)C`, the Ki was 162 ± 50.4 nM (Proteasome subunit beta type-7 (PSMB7, Homo sapiens, UniProt Q99436); trypsin-like activity, inhibitor, Proteasome-Glo; ARD; 24 h).
For `CC(C)C(C(=O)N(Cc1ccc(C2CCCCC2)cc1)c1ccc(C(=O)O)cc1)N(C)S(=O)(=O)c1c(F)c(F)c(F)c(F)c1F` (centres unmarked), the Ki was 72000 ± 6000 nM (Signal transducer and activator of transcription 3 (STAT3, Homo sapiens, UniProt P40763); fluorescence polarization; together with: 5-FAM-GpYLPQTV-NH2 10 nM).
With `CCc1nc(N)nc(N)c1C#CC(C)c1cc2c(c(-c3ccc(CC(=O)O)cc3)c1)OCO2` (centres unmarked) the Ki was 10.4 ± 0.8 nM (Dihydrofolate reductase type 1 from Tn4003 (Staphylococcus aureus, UniProt P13955); inhibitor).
The Ki of `O=S(=O)(O)c1ccc2c(c1)Cc1cc(S(=O)(=O)O)ccc1-2` is reported as 3400 ± 300 nM (OXA-58; enzyme activity, inhibitor; enzyme 0.1 nM, together with: nitrocefin 30 µM).
`Nc1nc2c(ncn2[C@@H]2CC[C@H](OC(C(=O)O)P(=O)(O)O)C2)c(=O)[nH]1` (relative stereo) gave a Ki of 362 nM (Gag-Pol polyprotein, reverse transcriptase (gag-pol, Human immunodeficiency virus type 1 group M subtype B, UniProt P04585); competitive inhibitor; together with: varying dGTP, poly rC.dG).
With `Cc1ccc(N=Nc2c(O)ccc3cc(S(=O)(=O)O)ccc23)cc1` the Ki was 6060 nM (Bcl-2-related protein A1 C113S/P104K; binding, inhibitor, fluorescence polarization; together with: FITC-labelled Noxa peptide).
The Ki of `Nc1cc(S(=O)(=O)O)cc2cc(S(=O)(=O)O)cc(O)c12` is reported as 12000 nM and < 10000 nM and 11700 nM (OXA-48; enzyme activity, inhibitor; 0.2 nM enzyme, together with: nitrocefin 30 µM).
`COc1cc2ncnc(NCc3ccc(P(=O)(O)O)cc3)c2cc1OC` has a Ki of 12 nM (Enpp1; enzyme activity, inhibitor, coupled luciferase AMP detection; pH 7.4, together with: cGAMP 5 µM).
`Cc1o[nH]c(=O)c1S(=O)(=O)Nc1cccc(-c2nnsc2Cl)c1` gave a Ki of 36000 nM (Beta-lactamase (ampC, Escherichia coli K-12, UniProt P00811); inhibitor, spectrophotometric).
The Ki of `O=S(=O)(O)c1ccc(-c2ccc(S(=O)(=O)O)cc2)cc1` is reported as 1800 ± 100 nM (OXA-58; enzyme activity, inhibitor; enzyme 0.1 nM, together with: nitrocefin 30 µM).
With `CCc1nc(N)nc(N)c1C#CC(C)c1cc2c(c(-c3ccc(C(=O)O)cc3)c1)OCO2` (centres unmarked) the Ki was 1.17 ± 0.02 nM (Dihydrofolate reductase (folA, Staphylococcus aureus, UniProt P0A017); inhibitor).
`CO[P@@]1(=O)OC[C@H]2COC(=O)C2=C(C)O1` (relative stereo) has a Ki of 210 ± 140 nM (Acetylcholinesterase (ACHE, Homo sapiens, UniProt P22303); enzyme activity, inhibitor, noncovalent binding constant).
For `CCN(CCNc1ccc(C)c2sc3ccccc3c(=O)c12)CC(C)(C)O`, the Ki was 16900 nM (Bcl-2-related protein A1 C113S/P104K; binding, inhibitor, fluorescence polarization; together with: FITC-labelled Noxa peptide).
`O=C(NC1CCN(c2ncnc3c2nc(-c2ccccc2Cl)n3-c2ccc(Cl)cc2)CC1)C1CCCCC1` has a Ki of 840 nM (Cannabinoid receptor 2 (CNR2, Homo sapiens, UniProt P34972); binding, radioligand displacement; CHO cell membranes; together with: [3H]CP55940).
`CC(=NO)c1cccc(C(C)(C)NC(=O)Nc2ccc(Cl)c(-c3nc(C(F)(F)F)cs3)c2)c1` gave a Ki of 13 ± 2 nM (guaB; inhibitor; together with: 1000 µM IMP and 1000 µM NAD+).
With `CCC(c1ccc(-c2ccc(F)cc2F)cc1)n1ccnc1` (centres unmarked) the Kd was 8.7 ± 1.2 µM (cyp121; binding).
For `O=C(CC1CCCC1)NC1CCN(c2ncnc3c2nc(-c2ccccc2Cl)n3-c2ccc(Cl)cc2)CC1`, the Ki was 2 nM (CNR1; binding, radioligand displacement; CHO cell membranes; together with: [3H]CP55940).

Repeated from above:
`O=S(=O)(O)c1ccc2cc(S(=O)(=O)O)ccc2c1` gave a Ki of > 100000 nM and 120000 nM (OXA-58; enzyme activity, inhibitor; enzyme 0.1 nM, together with: nitrocefin 30 µM).
`CC(C)(C)c1ccc(CNc2nc3[nH]c(CN4CCOCC4)cc(=O)n3n2)cc1` gave a Ki of 114 nM (CAB1 (Saccharomyces cerevisiae, UniProt Q04430); enzyme activity, inhibitor, ADP-Glo, Lineweaver-Burk; together with: ATP 1000 µM).
